Experimental data from different studies.
Each line is one published result; not all experiments were run side by side. ± gives the spread as reported.
Lethal factor: Lethal factor (Bacillus anthracis, UniProt P15917)
Replicase polyprotein 1a papain-like protease: Replicase polyprotein 1a, papain-like protease (Severe acute respiratory syndrome coronavirus 2, UniProt P0DTC1)
bglR: Beta-glucuronidase (bglR, Clostridium perfringens, UniProt Q8XP19)
OPG122: mRNA-decapping protein OPG122 (OPG122, Vaccinia virus, UniProt P04312)

SMILES	target	test	system	setting	IC50 [µM]
CC[C@H](C)[C@@H]1NC(=O)[C@H](CO)NC(=O)[C@H](CCCNC(=N)N)NC(=O)[C@H](CO)NC(=O)[C@H](C(C)C)NC(=O)CNC(=O)[C@H](CCCNC(=N)N)NC(=O)[C@H](CCCNC(=N)N)NC(=O)[C@H](CSCC(N)=O)NC(=O)[C@H](CC(C)C)NC(=O)[C@H](CO)NC(=O)[C@H](CCCNC(=N)N)NC(=O)[C@H](CO)NC(=O)[C@H](Cc2ccccc2)NC(=O)CNC(=O)[C@H](CCCNC(=N)N)NC(=O)[C@H]([C@@H](C)O)NC(=O)[C@H](CO)NC1=O	Lethal factor	enzyme activity, inhibitor	–	–	> 10
O=C(O)C1=C[C@H](O)[C@@H](NC(=O)c2ccc(-c3ccccc3)cc2)[C@H]([C@H](O)[C@H](O)CO)O1	Sialidase (nanI, Clostridium perfringens, UniProt A0A0H2YQR1)	enzyme activity, inhibitor	–	–	26
CCc1ccc(N2CCN(C)CC2)cc1C(=O)NC1(c2ccc3c4c(cccc24)CC3)CC1	Replicase polyprotein 1a papain-like protease	enzyme activity, inhibitor	–	–	0.47
CC[C@H](C)[C@@H]1NC(=O)[C@@H]2CSSC[C@H](NC(=O)[C@H](CCCNC(=N)N)NC(=O)[C@@H]3CSSC[C@H](NC1=O)C(=O)N[C@@H]([C@@H](C)O)C(=O)N[C@@H](CCCNC(=N)N)C(=O)NCC(=O)N[C@@H](Cc1ccccc1)C(=O)N3)C(=O)N[C@@H](CC(C)C)C(=O)N[C@H]1CSSC[C@H](NC(=O)[C@H](C(C)C)NC(=O)CNC(=O)[C@H](CCCNC(=N)N)NC(=O)[C@H](CCCNC(=N)N)NC1=O)C(=O)N[C@@H](CCCNC(=N)N)C(=O)N2	Lethal factor	enzyme activity, inhibitor	–	–	0.419 ± 0.032
C1CCN(c2nnnc3c2sc2nc(N4CCOCC4)c4c(c23)CCCC4)CC1	bglR	–	–	–	> 100
N#CC(CC1CCCNC1=O)NC(=O)C(CC1CC1)NC(=O)c1cc2cc(F)cc(F)c2[nH]1 (centres unmarked)	Cathepsin B (CTSB, Homo sapiens, UniProt P07858)	enzyme activity, inhibitor, fluorescence	–	pH 5, with preincubation	0.169
CC[C@H](C)[C@@H]1NC(=O)[C@H](CCCNC(=N)N)NC(=O)[C@H](CO)NC(=O)[C@H](CCC(=O)O)NC(=O)[C@H](CC(=O)O)NC(=O)CNC(=O)CNC(=O)[C@H]([C@@H](C)O)NC(=O)[C@H](Cc2ccccc2)NC(=O)[C@H](CO)NC(=O)[C@H]([C@@H](C)O)NC(=O)[C@H](C)NC(=O)[C@@H]2CSSC[C@@H](C(=O)N[C@@H](Cc3ccc(O)cc3)C(=O)N[C@@H](Cc3ccccc3)C(=O)N[C@H](C(=O)N[C@H](C(=O)NCC(=O)O)[C@@H](C)O)[C@@H](C)O)NC(=O)[C@H]([C@@H](C)O)NC(=O)[C@H](CSSC[C@H](NC(=O)[C@H](CCC(=O)O)NC(=O)[C@H](CO)NC(=O)[C@H](CCCCN)NC(=O)[C@H](Cc3ccc(O)cc3)NC(=O)[C@@H]3CCCN3C(=O)[C@H](Cc3ccccc3)NC(=O)[C@H](CCCCN)NC(=O)[C@H](CCCNC(=N)N)NC(=O)[C@H](CCCCN)NC(=O)[C@H](CCCCN)NC(=O)[C@H](Cc3ccc(O)cc3)NC(=O)[C@@H]3CCCN3C(=O)[C@@H](NC(=O)[C@H](CC(=O)O)NC(=O)[C@H](CCCCN)NC(=O)[C@H](CCCCN)NC(=O)[C@@H](NC(=O)[C@@H](NC(=O)[C@@H](N)CCC(=O)O)C(C)C)[C@@H](C)CC)[C@@H](C)O)C(=O)N[C@@H](CC(C)C)C(=O)N[C@@H](CCCCN)C(=O)N[C@@H](C)C(=O)N2)NC(=O)[C@H](CCCCN)NC(=O)[C@H](Cc2ccccc2)NC(=O)[C@H](Cc2ccccc2)NC(=O)CNC(=O)[C@@H]2CCCN2C(=O)[C@H](CCCCN)NC(=O)CNC(=O)[C@H](CCC(=O)O)NC(=O)[C@H](CCC(N)=O)NC1=O	KCNQ4 (Homo sapiens, UniProt P56696, D266G)	potassium current, whole-cell patch clamp	HEK-293T	–	108 ± 6.3
C[n+]1cn(C2OC(COP(=O)(O)OP(=O)(O)OP(=O)(O)O)C(O)C2O)c2nc(N)[nH]c(=O)c21 (centres unmarked)	OPG122	–	–	–	3
NCCNc1nnnc2c1sc1nc(N3CCOCC3)c3c(c12)CCCC3	bglR	–	–	–	3.2 ± 0.6
CCC(C(=O)Nc1cccc(F)c1)n1cccc2nc(SCc3ccc(F)cc3)nc1-2 (centres unmarked)	Replicase polyprotein 1ab, papain-like protease (rep, Middle East respiratory syndrome-related coronavirus, UniProt K9N7C7)	enzyme activity, inhibitor	–	–	> 100
CC(C)C[C@@H]1NC(=O)[C@H](CCCNC(=N)N)NC(=O)[C@@H]2CCCN2C(=O)[C@@H]2CSSC[C@H](NC(=O)CNC(=O)[C@@H]3CCCN3C(=O)[C@H](CCCCN)NC(=O)[C@H](CC(=O)O)NC(=O)[C@@H](NC(=O)CN)C(C)C)C(=O)N[C@@H](CCCNC(=N)N)C(=O)N[C@@H](Cc3ccc(O)cc3)C(=O)N[C@@H](CC(C)C)C(=O)N[C@@H](Cc3ccccc3)C(=O)NCC(=O)NCC(=O)N[C@H]3CSSC[C@H](NC(=O)CNC1=O)C(=O)N[C@@H](CCCCN)C(=O)NCC(=O)N[C@@H](CCCCN)C(=O)NCC(=O)N[C@@H](Cc1c[nH]cn1)C(=O)N[C@@H](CC(=O)O)C(=O)N[C@@H](Cc1ccc(O)cc1)C(=O)N[C@H](C(=O)N[C@@H](C)C(=O)N[C@@H](Cc1c[nH]c4ccccc14)C(=O)N[C@@H](CC(=O)O)C(=O)NCC(=O)N[C@H](C(=O)N[C@@H](Cc1ccccc1)C(=O)N[C@@H](CO)C(=O)N[C@@H](CC(=O)O)C(=O)O)[C@@H](C)O)CSSC[C@H](NC(=O)[C@H](CC(=O)O)NC(=O)[C@H](CC(=O)O)NC(=O)[C@H](CC(=O)O)NC(=O)[C@H](CO)NC(=O)[C@H](CCCCN)NC3=O)C(=O)N2	SCN3A (Homo sapiens, UniProt Q9NY46)	peak sodium current, inhibitor, automated patch clamp	HEK293	holding potential -80 mV, added: 0.1 % BSA	1.45
c1cn(Cc2ccc(-c3ccc4occc4c3)cc2)cn1	cyp121 (Mycobacterium tuberculosis, UniProt P9WPP7)	substrate depletion, inhibitor, LC-MS/MS	–	added: cYY 20 µM	19
CC[C@H](C)[C@H](NC(=O)[C@H](C)NC(=O)[C@H](CCC(=O)O)NC(=O)[C@H](CCC(=O)O)NC(=O)[C@H](CC(C)C)NC(=O)[C@H](CCCCN)NC(=O)[C@H](CCCCN)NC(=O)[C@H](CCSC)NC(=O)[C@H](CCC(=O)O)NC(=O)[C@H](Cc1ccc(O)cc1)NC(=O)[C@H](CCC(=O)O)NC(=O)[C@H](CC(C)C)NC(=O)[C@H](CC(=O)O)NC(=O)[C@H](CC(C)C)NC(=O)[C@H](Cc1ccccc1)NC(=O)[C@@H](NC(=O)[C@@H](NC(=O)[C@H](CC(N)=O)NC(=O)[C@@H](NC(=O)[C@H](CCC(N)=O)NC(=O)[C@H](CC(=O)O)NC(=O)[C@H](CC(C)C)NC(=O)[C@@H](N)CO)[C@@H](C)CC)C(C)C)[C@@H](C)O)C(=O)N[C@@H](CCCCN)C(=O)N[C@@H](CCCCN)C(=O)N[C@@H](CC(C)C)C(=O)N[C@@H](CCC(=O)O)C(=O)N[C@@H](CCC(=O)O)C(=O)N[C@@H](CO)C(=O)N[C@@H](Cc1ccc(O)cc1)C(=O)N[C@H](C(=O)N[C@@H](CC(=O)O)C(=O)N[C@@H](CC(C)C)C(=O)N[C@@H](CCCCN)C(=O)N[C@@H](CCC(=O)O)C(=O)N[C@@H](CC(C)C)C(=O)O)[C@@H](C)CC	Spike glycoprotein (Severe acute respiratory syndrome coronavirus 2, UniProt P0DTC2)	ligand displacement, FP	–	–	0.0025
Cc1ccc(N2CCCN(C)CC2)cc1C(=O)NC1(c2ccc3c4c(cccc24)CC3)CC1	Replicase polyprotein 1a papain-like protease	enzyme activity, inhibitor	–	–	0.09
Nc1nc2c(ncn2C2OC(COP(=O)(O)OP(=O)(O)O)C(O)C2O)c(=O)[nH]1 (centres unmarked)	OPG122	–	–	–	171
CC[C@H](C)[C@H](NC(=O)[C@H](CCCCN)NC(=O)[C@H](Cc1ccccc1)NC(=O)[C@H](CC(=O)O)NC(=O)[C@@H](NC(=O)[C@H](CC(N)=O)NC(=O)[C@@H](N)CO)[C@@H](C)CC)C(=O)N[C@@H](CCCCN)C(=O)N[C@@H](CCCCN)C(=O)O	HLA class I histocompatibility antigen, A alpha chain, allele A*26:01 (Homo sapiens, UniProt P04439)	biochemical	–	–	> 10
CC[C@H](C)[C@H](NC(=O)[C@H](Cc1c[nH]cn1)NC(=O)[C@H](Cc1ccc(O)cc1)NC(=O)[C@H](CCCCN)NC(=O)[C@@H]1CSSC[C@@H]2NC(=O)[C@H](CCC(=O)O)NC(=O)[C@H](CC(=O)O)NC(=O)[C@H](C)NC(=O)CNC(=O)[C@H](Cc3ccc(O)cc3)NC(=O)[C@H](CCCCN)NC(=O)[C@@H]3CSSC[C@H](NC(=O)[C@H](C(C)C)NC(=O)[C@H](Cc4ccc(O)cc4)NC(=O)CNC(=O)[C@H](CCCCN)NC(=O)[C@H](CSSC[C@H](NC(=O)[C@@H](N)CO)C(=O)N[C@@H](CCCCN)C(=O)N[C@@H](C(C)C)C(=O)N4CCC[C@H]4C(=O)N[C@@H](Cc4ccccc4)C(=O)N[C@@H](CC(N)=O)C(=O)N[C@@H](CCC(=O)O)C(=O)N3)NC2=O)C(=O)N[C@@H](CO)C(=O)N[C@@H](CCCCN)C(=O)N[C@@H](CCCNC(=N)N)C(=O)N[C@@H](CC(=O)O)C(=O)NCC(=O)N[C@@H](Cc2c[nH]c3ccccc23)C(=O)N1)C(=O)N[C@@H](CC(N)=O)C(=O)O	SCN9A (Homo sapiens, UniProt Q15858)	ion current, inhibitor, patch clamp	–	–	9.22
